Measured values of several laboratories.
Parts stem from different laboratories: compare values within a part only. Changes are numbered by the printed parent chain.

Series 1 — target: CCNB3, cyclin fold, Cln2 fusion (human); method: yeast growth competition, sequencing; medium: yeast; notes: weak parent motif; reference: not given; direction: higher = stronger binding
Starting sequence: RBL1 docking peptide (human); GSAKRRLFGEDPP
Change	normalised enrichment score
GSAKRRLFLEDPP [G9L]	1.09
GSEKRRLFGEDPP [A3E]	0.48
GGAKRRLFGEDPP [S2G]	0.581
GSAKRRLFGIDPP [E10I]	0.778
GSAHRRLFGEDPP [K4H]	0.0655
KSAKRRLFGEDPP [G1K]	0.935
GSAKRRLFMEDPP [G9M]	1.05
GSAKRWLFGEDPP [R6W]	0.192
GSCKRRLFGEDPP [A3C]	1.11
GSAKRRLFGEDSP [P12S]	0.927
GSAKRRLFGESPP [D11S]	0.965
GSAKRRLFREDPP [G9R]	0.61
GSAKRRLVGEDPP [F8V]	0.146
GSAKRRLFGEDLP [P12L]	0.322
GSAKRGLFGEDPP [R6G]	0.0436
GSAARRLFGEDPP [K4A]	0.363
GSAKCRLFGEDPP [R5C]	0.147
GSAKRRLFGVDPP [E10V]	0.122
GSAKRRLFGEYPP [D11Y]	1.03
GSAKKRLFGEDPP [R5K]	0.172
GSAKRRLFDEDPP [G9D]	1.01
GSAKRRLFGECPP [D11C]	0.656
GPAKRRLFGEDPP [S2P]	0.361

Series 2 — method: DHFR PCA, deep sequencing; medium: yeast; added: (+)-ABA 58 µM; reference: wild-type fitted maximum; direction: higher = stronger binding
Target: ABI1, truncated, D143A, DHFR fusion (Arabidopsis thaliana)
Notes: methotrexate growth selection, single substitutions
Starting sequence: PYL1, truncated, DHFR fusion (Arabidopsis thaliana); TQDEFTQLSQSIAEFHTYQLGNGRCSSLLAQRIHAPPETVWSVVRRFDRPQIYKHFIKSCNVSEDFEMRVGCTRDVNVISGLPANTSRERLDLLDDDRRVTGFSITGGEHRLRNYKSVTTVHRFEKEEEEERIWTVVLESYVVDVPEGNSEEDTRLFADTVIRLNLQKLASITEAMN; partner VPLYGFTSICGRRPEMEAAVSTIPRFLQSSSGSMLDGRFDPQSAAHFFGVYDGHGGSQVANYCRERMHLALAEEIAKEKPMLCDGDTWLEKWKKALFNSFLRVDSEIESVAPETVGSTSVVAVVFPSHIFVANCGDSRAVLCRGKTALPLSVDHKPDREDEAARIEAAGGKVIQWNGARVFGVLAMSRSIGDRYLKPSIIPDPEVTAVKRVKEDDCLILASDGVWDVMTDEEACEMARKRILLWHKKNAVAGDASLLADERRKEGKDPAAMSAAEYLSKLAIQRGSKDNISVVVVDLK
Change	relative binding score
G23C	60.9%
L164R	83.3%
R90F	7.18%
P36H	85.6%
V44H	-8.55%
S26L	11%
V43M	71.6%
A35H	-24.2%
L20V	95.6%
H16E	6.2%
L29N	82.1%
D153H	54.3%
K58G	64.5%
Y18W	88.3%
T120C	7.17%
G81P	14.6%
R45G	18.5%
H34G	75.9%
F5R	87.5%
E129K	98%
E89L	-3.84%
N61L	79.8%

Series 3 — method: RNA Bind-n-Seq; form: RNA; medium: in vitro; tested at: not given; reference: input RNA pool; direction: higher = stronger binding
Target: RING finger protein unkempt homolog, zinc fingers 1-6, GST-SBP tag (UNK, Homo sapiens, UniProt Q9C0B0, residues 30-357)
Notes: RNA with constant flanks, human-mouse chimeric sites, ends assumed
Constant ends, left off below: GGGAGUUCUACAGUCCGACGAUC … CAACAGAGGAUUGAGCAUCA
Construct (chain): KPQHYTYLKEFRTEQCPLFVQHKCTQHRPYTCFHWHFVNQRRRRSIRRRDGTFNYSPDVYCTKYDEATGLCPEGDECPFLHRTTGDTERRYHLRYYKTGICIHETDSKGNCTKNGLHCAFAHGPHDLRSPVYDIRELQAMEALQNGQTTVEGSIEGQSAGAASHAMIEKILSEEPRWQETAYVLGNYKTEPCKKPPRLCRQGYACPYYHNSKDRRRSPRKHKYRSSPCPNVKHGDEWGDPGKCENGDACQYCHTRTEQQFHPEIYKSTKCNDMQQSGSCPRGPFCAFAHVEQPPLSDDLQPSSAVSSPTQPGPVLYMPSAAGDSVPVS
Sequence	bound/input enrichment [ratio]
GUGACUGACAUUAAAAUUUCCCCUCAGCAAAGAAGUGCAGUAGUCACCAUAAUUCCAUCUGUGGUGAGUGCCAGUCAGAUUGUGGAGCUGGUCCCAGACCUCAGUUUAGACAUGGGAACU	0.227
GGUGGGGUGGUCAUUGCCGUUUGAGCUGCUGAUUUUCAUGAGUCGCCUUCAAAACUCUCGCAUAGGGUUGACAAUGUAAGGGGUGGGGGGAUCCAGCUUAUUCUUUUAUUUUCAAGUCCA	0.804
GAGUCGAGCAAACUUGAAACAAUUCGUUAUCUUGCAGCCUCAGUGUUCACUUGCUUGUGGCAAUAGCUGGGGUUUUAUAGGUUCUGGAAGGAGAACUUUAAUGCUCACUGCCGCUGCUGC	0.176
CCCACGCCUCCUCUCCCACAGGCCCAAGAUAUAACCCACCAGUGCCUUUUGUCUUCCUGUCAGCUCUGUCAAUCACGCCUGUCCUCUCACGCCCACACCAAGUGCCCCCACCCCUAAGGG	0.514
UCUUAACUUAUUCAUUUCUUAUUUUUAUAUAGCUAGAUAAAUAUUGUUAGUCUUAGACAAUAGCUCACAUUUUUUGAAAAGCAUGCUCUCCCUGUCCAUUUGUCUUAUAACAUGACCCAG	167
AGAGAUAAGACAUCCAGGAACAUGCGAGGCUCCCGGAUGAAUGGGUUGCCUAGCCCCACUCAUAGUGCCCACUGUAGCUUCUACCGAACCAGAACCUUGCAGGCAUUGAGUAAUGAGAAG	0.181
AACAGAUUGUCUUUAAGGUCAACGUAGGAGAAUGCUGGGGUGAUCAUUGUUGCCCAUGUGCCUUCUGACUGAGCUUUAAUGCUGUUCCAUGUUACAUUGAUGUUCUUCUCCAGAAUUGUU	0.0969
CAGGGCAUCAUCUCUCGUGCUGUUAGACACCUGUUCAAGAGUAUUGAUGAGAAAAAGCACAUAGCAAUUAAAAACGGGCUGCCCCCUCCAGAUUUUAAAGUGAAUGCCCAGUUCCUAGAG	2.1
UUGAAAACUGAUUCAAGCAAGUUUGAAUAUCACAAUGUUAGCUUUCUAAUUCCAUAAAAGUACUUGGUACAGUUUCUUUAUAAUCUGACAUCACCCCAGCGCCAUUUGUAAAGAGCAACU	1.22
AGAGCCCAGGAUGUUGAUGCUACAAAUCCAAAUUACGAAAUUAUGUGUAUGAUCAGAGACUUCAGAGGAAGUUUGGAUUAUAGACCACUAACAACAGCAGAUCCUAUUGAUGAACAUAGG	0.466
AAAGUGGACUAUGGCGAAUACAUGGAUAAAAACAAUGUGAGGCGGCAAGCAACAACAAUCAUAGCUGAUAACAUUAUAUUUCUGAGUGACCAGACAAAAGAGAAGGAAUAGAACGGAUGA	1.89

Series 4 — method: protein binding microarray; form: double-stranded DNA, one strand shown; medium: in vitro; tested at: not given; reference: not given; direction: higher = stronger binding
Target: Histone acetyltransferase KAT6A, both winged helices, GST fusion (KAT6A, Homo sapiens, UniProt Q92794, residues 1-181)
Notes: 8-mer, flanks averaged, mean of 2 arrays, mostly near background
Construct (chain): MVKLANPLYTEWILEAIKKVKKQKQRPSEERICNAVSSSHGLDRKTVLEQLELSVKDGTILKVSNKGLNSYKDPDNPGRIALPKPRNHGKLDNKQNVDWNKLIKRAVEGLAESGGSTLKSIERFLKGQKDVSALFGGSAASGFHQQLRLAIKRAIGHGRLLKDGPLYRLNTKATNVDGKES
Sequence	E-score
AGATCGTA	-0.144
CCGTGGGC	0.184
CGTTTATC	0.181
GATTAGTA	-0.0432
TGGCTCAA	-0.0923
CCGAAAAA	-0.0416
CACGGGTC	0.228
CGACGCTA	0.247
CACAACTA	0.025
ATCCCGGG	0.241
TCGTAGAA	-0.0827
CCACTAGC	-0.0782
AGTCACTC	-0.172
GAGAAGCA	-0.183
CTGAAGGC	-0.143
GACTGCAC	-0.12
GGCCTGGA	-0.132

Series 5 — method: aptamer microarray, sandwich; form: DNA with 2'F-ANA; medium: in vitro; tested at: 200 nM; added: Cy3 exosite-II aptamer, 400 nM; direction: higher = stronger binding; sequence: GGTTGGTGTGGTTGG
Target: Prothrombin, mature alpha-thrombin (F2, Homo sapiens, UniProt P00734)
Notes: whole 15-mer aptamer, many near background
Modification	mean fluorescence intensity [a.u.]
2'F-ANA at 1 2 6 8 9 11 12 14	68.4
2'F-ANA at 2 4 5 6 7 10 11 15	48.4
2'F-ANA at 3 4 6 7 11 15	509
2'F-ANA at 1 3 4 5 6 9 10 11 12 15	73.4
2'F-ANA at 5 6 7 9 10 13 14	46.2
2'F-ANA at 2 3 4 5 6 8 9 12 13 14 15	50.4
2'F-ANA at 1 2 3 6 7 8 9 10 14 15	55.3
2'F-ANA at 2 4 5 6 7 8 12 15	142
2'F-ANA at 2 4 8 9 11 13 14	80
2'F-ANA at 1 3 5 6 7 8 9 10 11 14 15	67.7
2'F-ANA at 1 3 4 8 10 11 13 15	63.8
2'F-ANA at 6 10 15	158
2'F-ANA at 1 3 6 9 11 12 13 14	98
2'F-ANA at 1 2 3 5 6 7 9 10 11 12 13 15	51.7
2'F-ANA at 2 3 4 6 10 12	284
2'F-ANA at 3 4 5 11 14	54.9
2'F-ANA at 1 5 7 8 10 12	50.1
2'F-ANA at 7 8 9 11 14 15	206
2'F-ANA at 2 3 4 6 8 9 11 12 15	611
2'F-ANA at 1 2 3 9 10 11 13 14 15	54.2

Series 6 — target: CEBPD, bZIP domain (human); method: DHFR protein complementation; medium: yeast; reference: wild-type JUN-FOS pair; direction: higher = stronger binding
Notes: single substitutions, most at no-binding floor
Starting sequence: JUN, bZIP domain (human); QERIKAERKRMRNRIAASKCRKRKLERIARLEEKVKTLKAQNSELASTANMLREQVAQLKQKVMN; partner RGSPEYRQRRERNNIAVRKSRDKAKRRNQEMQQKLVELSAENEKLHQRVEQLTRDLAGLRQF
Change	binding fitness
L31M	-1.33 natural log
Q41T	-1.37 natural log
A29F	-1.17 natural log
E32M	-1.42 natural log
S47A	-1.32 natural log
L45I	-1.47 natural log
E33M	-1.38 natural log
L31E	-1.43 natural log
T48M	-1.38 natural log
L52S	-1.52 natural log
R30F	-1.36 natural log
L52A	-1.42 natural log
K39S	-1.29 natural log
I28K	-1.25 natural log
K39F	-1.44 natural log
E33S	-1.45 natural log
Q41G	-1.45 natural log
T37S	-1.28 natural log
A29N	-1.4 natural log

For quick reference, copied from above (series 1):
Change	normalised enrichment score
GSAKRRLFMEDPP [G9M]	1.05
GSAKRWLFGEDPP [R6W]	0.192
GSCKRRLFGEDPP [A3C]	1.11
GSAKRRLFGEDSP [P12S]	0.927
GSAKRRLFGESPP [D11S]	0.965
GSAKRRLFREDPP [G9R]	0.61
GSAKRRLVGEDPP [F8V]	0.146
GSAKRRLFGEDLP [P12L]	0.322
GSAKRGLFGEDPP [R6G]	0.0436
GSAARRLFGEDPP [K4A]	0.363
GSAKCRLFGEDPP [R5C]	0.147
GSAKRRLFGVDPP [E10V]	0.122
GSAKRRLFGEYPP [D11Y]	1.03
GSAKKRLFGEDPP [R5K]	0.172
GSAKRRLFDEDPP [G9D]	1.01
